{"data": "Assay results of several laboratories", "note": "Numbered parts are unrelated; each lists some results of a single study.", "chain of UniProt Q5XXA6 (whole entry, unmodified, looked up)": "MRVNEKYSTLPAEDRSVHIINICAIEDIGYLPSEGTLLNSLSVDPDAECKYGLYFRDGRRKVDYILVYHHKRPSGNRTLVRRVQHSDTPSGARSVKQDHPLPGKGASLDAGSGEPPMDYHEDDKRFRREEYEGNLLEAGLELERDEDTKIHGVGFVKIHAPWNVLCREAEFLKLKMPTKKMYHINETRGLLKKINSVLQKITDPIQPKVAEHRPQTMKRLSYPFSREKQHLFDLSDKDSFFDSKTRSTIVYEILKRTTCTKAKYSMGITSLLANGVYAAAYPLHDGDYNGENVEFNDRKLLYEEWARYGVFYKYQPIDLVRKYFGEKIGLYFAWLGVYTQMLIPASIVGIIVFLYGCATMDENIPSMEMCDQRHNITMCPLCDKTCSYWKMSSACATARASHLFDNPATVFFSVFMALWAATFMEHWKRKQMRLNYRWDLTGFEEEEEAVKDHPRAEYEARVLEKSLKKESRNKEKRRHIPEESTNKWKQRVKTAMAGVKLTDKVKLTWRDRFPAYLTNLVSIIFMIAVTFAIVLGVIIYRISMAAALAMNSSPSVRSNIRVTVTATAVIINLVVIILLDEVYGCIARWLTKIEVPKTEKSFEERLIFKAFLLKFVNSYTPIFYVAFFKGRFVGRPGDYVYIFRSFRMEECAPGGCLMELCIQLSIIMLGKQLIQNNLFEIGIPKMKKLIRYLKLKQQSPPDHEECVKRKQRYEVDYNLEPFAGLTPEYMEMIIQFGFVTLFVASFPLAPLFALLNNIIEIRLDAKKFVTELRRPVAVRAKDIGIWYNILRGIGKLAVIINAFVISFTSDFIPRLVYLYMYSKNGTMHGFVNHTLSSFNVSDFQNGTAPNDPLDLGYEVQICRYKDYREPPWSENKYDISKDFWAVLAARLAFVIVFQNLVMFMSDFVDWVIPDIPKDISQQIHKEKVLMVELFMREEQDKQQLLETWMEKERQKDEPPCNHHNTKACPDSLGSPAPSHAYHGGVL", "chain of UniProt Q13555 (whole entry, looked up)": "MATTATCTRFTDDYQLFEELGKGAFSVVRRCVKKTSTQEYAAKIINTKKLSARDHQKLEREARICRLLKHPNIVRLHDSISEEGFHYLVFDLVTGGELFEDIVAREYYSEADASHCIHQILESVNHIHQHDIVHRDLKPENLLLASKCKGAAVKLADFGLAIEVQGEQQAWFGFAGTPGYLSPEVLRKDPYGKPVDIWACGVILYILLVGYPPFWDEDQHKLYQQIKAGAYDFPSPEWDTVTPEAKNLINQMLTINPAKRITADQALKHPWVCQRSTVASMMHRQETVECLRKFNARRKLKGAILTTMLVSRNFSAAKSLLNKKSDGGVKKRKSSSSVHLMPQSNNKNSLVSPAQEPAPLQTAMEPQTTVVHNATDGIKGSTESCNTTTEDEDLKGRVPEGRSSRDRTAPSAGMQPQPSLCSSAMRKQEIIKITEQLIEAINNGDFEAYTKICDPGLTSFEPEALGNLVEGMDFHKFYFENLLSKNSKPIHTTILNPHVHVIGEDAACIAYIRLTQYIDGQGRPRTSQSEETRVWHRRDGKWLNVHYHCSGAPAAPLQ", "chain of UniProt Q9UPE1 (whole entry, looked up)": "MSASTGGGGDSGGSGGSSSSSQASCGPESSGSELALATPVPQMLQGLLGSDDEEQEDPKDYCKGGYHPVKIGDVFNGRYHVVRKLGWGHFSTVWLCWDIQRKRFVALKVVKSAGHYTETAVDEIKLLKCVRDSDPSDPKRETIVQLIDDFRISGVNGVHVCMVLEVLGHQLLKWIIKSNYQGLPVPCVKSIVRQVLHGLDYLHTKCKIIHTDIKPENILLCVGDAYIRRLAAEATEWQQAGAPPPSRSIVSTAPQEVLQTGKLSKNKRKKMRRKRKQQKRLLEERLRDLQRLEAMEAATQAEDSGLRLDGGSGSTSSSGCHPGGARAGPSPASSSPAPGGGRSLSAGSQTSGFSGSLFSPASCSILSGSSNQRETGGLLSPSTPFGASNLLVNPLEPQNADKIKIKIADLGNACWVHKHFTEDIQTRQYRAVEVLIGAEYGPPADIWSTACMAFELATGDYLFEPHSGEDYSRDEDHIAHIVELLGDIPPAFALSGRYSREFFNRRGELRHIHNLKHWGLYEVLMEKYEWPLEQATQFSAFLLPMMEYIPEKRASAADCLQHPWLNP", "chain of UniProt Q15569 (whole entry, looked up)": "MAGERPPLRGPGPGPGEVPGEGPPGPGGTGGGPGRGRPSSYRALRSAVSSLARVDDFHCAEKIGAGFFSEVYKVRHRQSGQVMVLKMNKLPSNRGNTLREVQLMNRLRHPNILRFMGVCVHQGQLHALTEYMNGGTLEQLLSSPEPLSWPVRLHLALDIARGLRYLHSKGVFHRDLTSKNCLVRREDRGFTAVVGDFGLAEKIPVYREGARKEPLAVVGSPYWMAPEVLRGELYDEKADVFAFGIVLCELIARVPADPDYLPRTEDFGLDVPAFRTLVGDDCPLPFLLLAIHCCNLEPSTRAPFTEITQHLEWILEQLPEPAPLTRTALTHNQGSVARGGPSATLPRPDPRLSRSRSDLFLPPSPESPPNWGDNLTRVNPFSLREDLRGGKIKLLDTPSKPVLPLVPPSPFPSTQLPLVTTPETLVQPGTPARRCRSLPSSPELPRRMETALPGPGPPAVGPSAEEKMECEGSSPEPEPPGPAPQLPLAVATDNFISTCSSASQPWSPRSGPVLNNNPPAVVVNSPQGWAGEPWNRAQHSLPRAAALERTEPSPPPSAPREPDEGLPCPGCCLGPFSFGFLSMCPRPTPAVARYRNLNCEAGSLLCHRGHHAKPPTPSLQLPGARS", "chain of UniProt Q9Y6M4 (whole entry, looked up)": "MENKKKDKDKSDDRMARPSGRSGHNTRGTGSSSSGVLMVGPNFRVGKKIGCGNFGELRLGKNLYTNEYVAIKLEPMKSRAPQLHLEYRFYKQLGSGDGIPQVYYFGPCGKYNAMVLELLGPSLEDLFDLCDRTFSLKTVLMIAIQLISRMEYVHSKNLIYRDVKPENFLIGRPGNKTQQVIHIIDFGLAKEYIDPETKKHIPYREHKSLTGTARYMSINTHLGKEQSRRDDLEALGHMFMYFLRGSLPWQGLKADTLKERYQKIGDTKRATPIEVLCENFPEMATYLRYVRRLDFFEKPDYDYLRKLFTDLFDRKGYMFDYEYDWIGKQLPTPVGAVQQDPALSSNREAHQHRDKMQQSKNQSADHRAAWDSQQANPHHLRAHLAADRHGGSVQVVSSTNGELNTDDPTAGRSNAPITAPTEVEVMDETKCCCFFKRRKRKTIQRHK", "chain of UniProt P54764 (whole entry, looked up)": "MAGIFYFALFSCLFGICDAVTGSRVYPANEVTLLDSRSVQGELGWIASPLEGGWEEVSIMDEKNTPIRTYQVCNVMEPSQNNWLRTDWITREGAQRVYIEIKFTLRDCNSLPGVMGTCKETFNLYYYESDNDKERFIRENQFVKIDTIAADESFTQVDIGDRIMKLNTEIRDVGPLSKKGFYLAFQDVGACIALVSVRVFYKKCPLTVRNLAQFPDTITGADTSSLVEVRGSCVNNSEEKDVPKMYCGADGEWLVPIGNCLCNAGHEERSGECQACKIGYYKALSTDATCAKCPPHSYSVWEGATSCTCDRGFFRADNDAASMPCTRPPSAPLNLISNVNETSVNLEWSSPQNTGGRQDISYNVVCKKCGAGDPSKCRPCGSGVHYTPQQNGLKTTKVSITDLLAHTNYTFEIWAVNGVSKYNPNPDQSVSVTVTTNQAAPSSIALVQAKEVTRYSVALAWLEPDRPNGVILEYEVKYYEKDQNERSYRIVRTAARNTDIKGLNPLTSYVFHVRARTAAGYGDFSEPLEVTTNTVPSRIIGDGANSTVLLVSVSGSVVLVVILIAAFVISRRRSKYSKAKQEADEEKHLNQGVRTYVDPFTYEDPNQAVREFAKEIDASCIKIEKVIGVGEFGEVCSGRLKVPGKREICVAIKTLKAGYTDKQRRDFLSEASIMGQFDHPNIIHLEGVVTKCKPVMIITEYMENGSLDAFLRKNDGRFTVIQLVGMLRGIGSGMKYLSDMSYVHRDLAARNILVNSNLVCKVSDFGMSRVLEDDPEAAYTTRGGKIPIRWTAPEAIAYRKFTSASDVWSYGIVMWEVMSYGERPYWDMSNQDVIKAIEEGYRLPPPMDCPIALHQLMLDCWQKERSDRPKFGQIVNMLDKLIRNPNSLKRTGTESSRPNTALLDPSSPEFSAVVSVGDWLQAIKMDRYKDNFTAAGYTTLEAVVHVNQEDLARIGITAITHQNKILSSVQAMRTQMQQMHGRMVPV", "chain of UniProt O75716 (whole entry, looked up)": "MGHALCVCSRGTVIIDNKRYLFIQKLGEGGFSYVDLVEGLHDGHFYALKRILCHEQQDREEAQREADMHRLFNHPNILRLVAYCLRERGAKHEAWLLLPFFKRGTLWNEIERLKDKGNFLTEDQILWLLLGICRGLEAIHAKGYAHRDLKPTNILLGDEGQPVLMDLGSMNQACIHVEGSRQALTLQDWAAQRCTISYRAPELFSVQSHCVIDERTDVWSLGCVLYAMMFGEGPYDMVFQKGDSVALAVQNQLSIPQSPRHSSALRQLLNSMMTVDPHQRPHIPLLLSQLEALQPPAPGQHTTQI"}
{"data": "Sample 1", "SMILES": "C[C@H](c1cccc(C#N)c1)n1cc(Cl)cc(C(N)=O)c1=N", "effect on": "cell-free assay", "method": "competition with immobilised ligand", "tested at": "1 µM"}
{"target": "PIK3CB (Homo sapiens, UniProt P42338)", "remaining binding": "94%"}
{"target": "CAMK2G (Homo sapiens, UniProt Q13555)", "remaining binding": "100%"}
{"target": "PRKG1 (Homo sapiens, UniProt Q13976)", "remaining binding": "100%"}
{"target": "KIT (Homo sapiens, UniProt P10721, D816H)", "remaining binding": "79%"}
{"target": "CSNK1G3 (Homo sapiens, UniProt Q9Y6M4)", "remaining binding": "100%"}
{"target": "LRRK2 (Homo sapiens, UniProt Q5S007, G2019S)", "remaining binding": "100%"}
{"target": "MST1R (Homo sapiens, UniProt Q04912)", "remaining binding": "100%"}
{"target": "FGFR4 (Homo sapiens, UniProt P22455)", "remaining binding": "87%"}
{"target": "NTRK3 (Homo sapiens, UniProt Q16288)", "remaining binding": "96%"}
{"target": "SRPK3 (Homo sapiens, UniProt Q9UPE1)", "remaining binding": "100%"}
{"target": "Tyrosine-protein kinase JAK1, JH2 (JAK1, Homo sapiens, UniProt P23458)", "remaining binding": "92%"}
{"target": "DAPK1 (Homo sapiens, UniProt P53355)", "remaining binding": "100%"}
{"target": "CAMK4 (Homo sapiens, UniProt Q16566)", "remaining binding": "90%"}
{"target": "CDK14 (Homo sapiens, UniProt O94921)", "remaining binding": "100%"}
{"target": "EPHA4 (Homo sapiens, UniProt P54764)", "remaining binding": "65%"}
{"target": "PRKCE (Homo sapiens, UniProt Q02156)", "remaining binding": "87%"}
{"target": "PI4KB (Homo sapiens, UniProt Q9UBF8)", "remaining binding": "100%"}
{"target": "Insulin receptor (INSR, Homo sapiens, UniProt P06213)", "remaining binding": "97%"}
{"target": "EGFR (Homo sapiens, UniProt P00533, del747-752/P753S)", "remaining binding": "97%"}
{"target": "STK16 (Homo sapiens, UniProt O75716)", "remaining binding": "100%"}
{"target": "eIF-2-alpha kinase GCN2, C-terminal kinase domain (EIF2AK4, Homo sapiens, UniProt Q9P2K8, S808G)", "remaining binding": "45%"}
{"target": "EPHA7 (Homo sapiens, UniProt Q15375)", "remaining binding": "98%"}
{"target": "BRSK2 (Homo sapiens, UniProt Q8IWQ3)", "remaining binding": "85%"}
{"target": "RIPK1 (Homo sapiens, UniProt Q13546)", "remaining binding": "100%"}
{"target": "TESK1 (Homo sapiens, UniProt Q15569)", "remaining binding": "86%"}
{"data": "Sample 2", "host": "mouse", "matrix": "microsomes or S9", "tested at": "2 µM", "time": "0.5 h"}
{"SMILES": "CCCC1(c2ccccc2)OC(=O)C(C)=C1c1ccccc1 (centres unmarked)", "remaining compound [%]": 81.7}
{"SMILES": "O=C1CCCC2=C1C(c1ccc3c(c1)OCO3)Nc1ccc(C(=O)c3ccccc3)cc1N2 (centres unmarked)", "remaining compound [%]": 4.34}
{"SMILES": "COC(=O)c1c(NC(=O)N2CCN(C(=O)C(C)C)CC2)sc2c1CC(C)(C)OC2", "remaining compound [%]": 60.4}
{"SMILES": "CC(C)OC(=O)N1CCC(CNc2ncnc3c(-c4ccc(S(C)(=O)=O)cc4)csc23)CC1", "remaining compound [%]": "> 99"}
{"SMILES": "CCCc1nc(-c2ccc3ccccc3c2)cc2ccsc12", "remaining compound [%]": 0.263}
{"SMILES": "Fc1ccc2nc(-n3cncn3)c(-c3ccc(Cl)cc3Br)c(Cl)c2c1", "remaining compound [%]": 102}
{"SMILES": "O=C(C1CCCN(S(=O)(=O)c2cc(Cl)ccc2Cl)C1)N1CCCCC1 (centres unmarked)", "remaining compound [%]": 1.18}
{"SMILES": "Cc1nc(-c2cc(C(=O)OCc3cc(F)cc4c3OCOC4)n(C)c2)cs1", "remaining compound [%]": 0.901}
{"SMILES": "CC(=O)c1ccc(N2CCC(OC(=O)CCc3nnc[nH]3)CC2)cc1", "remaining compound [%]": 0.0607}
{"SMILES": "COc1cc(=O)[nH]cc1C(=O)N1CCCC1c1ccc(O)cc1 (centres unmarked)", "remaining compound [%]": 33.1}
{"data": "Sample 3", "SMILES": "C=CCc1ccc(O)c(-c2cc(CC=C)ccc2O)c1", "effect on": "chloride current", "method": "whole-cell voltage clamp"}
{"target": "Anoctamin-1 (ANO1, Homo sapiens, UniProt Q5XXA6, del476-501/M544A)", "setting": "membrane voltage 100 mV", "IC50 [µM]": 99}
{"target": "Anoctamin-1 (ANO1, Homo sapiens, UniProt Q5XXA6, del476-501/F627A)", "setting": "membrane voltage 80 mV", "IC50 [µM]": 26.2}
{"target": "Anoctamin-1 (ANO1, Homo sapiens, UniProt Q5XXA6, del476-501/M544T)", "assay": "inhibitor", "setting": "40 mV holding voltage", "IC50 [µM]": 23.8}
{"target": "Anoctamin-1 (ANO1, Homo sapiens, UniProt Q5XXA6, D383A/del476-501)", "setting": "membrane voltage -100 mV", "IC50 [µM]": 47.3}
{"target": "Anoctamin-1 (ANO1, Homo sapiens, UniProt Q5XXA6, del476-501/R561A)", "setting": "membrane voltage 40 mV", "IC50 [µM]": 23}
{"target": "Anoctamin-1 (ANO1, Homo sapiens, UniProt Q5XXA6, del476-501/E649K)", "assay": "inhibitor", "setting": "E623K mutant at -60 mV", "IC50 [µM]": 140}
{"target": "Anoctamin-1 (ANO1, Homo sapiens, UniProt Q5XXA6, del476-501/K629D)", "assay": "inhibitor", "setting": "mutant K603D", "IC50 [µM]": 240}
{"data": "Sample 4", "target": "Activin receptor type-1-like (ACVRL1, Homo sapiens, UniProt P37023)", "effect on": "enzyme activity", "mode": "inhibitor", "tested at": "0.5 µM", "relative to": "control", "chain of UniProt P37023 (whole entry, looked up)": "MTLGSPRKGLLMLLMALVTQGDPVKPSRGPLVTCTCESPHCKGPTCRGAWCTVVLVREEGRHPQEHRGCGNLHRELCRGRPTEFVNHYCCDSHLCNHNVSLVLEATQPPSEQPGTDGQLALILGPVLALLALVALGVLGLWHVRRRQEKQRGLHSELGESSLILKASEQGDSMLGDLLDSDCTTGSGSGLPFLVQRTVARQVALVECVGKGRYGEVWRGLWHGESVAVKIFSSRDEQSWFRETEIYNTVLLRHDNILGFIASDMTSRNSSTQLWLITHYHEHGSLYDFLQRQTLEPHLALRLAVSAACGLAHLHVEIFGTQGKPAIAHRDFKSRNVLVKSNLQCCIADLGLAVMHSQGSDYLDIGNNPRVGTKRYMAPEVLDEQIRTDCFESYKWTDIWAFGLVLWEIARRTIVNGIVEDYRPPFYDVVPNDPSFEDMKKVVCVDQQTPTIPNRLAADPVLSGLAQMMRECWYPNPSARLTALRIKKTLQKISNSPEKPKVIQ"}
{"SMILES": "Nc1ncnc2c1cnn2-c1ccccc1", "remaining activity [%]": 109}
{"SMILES": "Nc1nccc(-c2c(-c3ccc(F)cc3)ncn2C2CCNCC2)n1", "remaining activity [%]": 95.6}
{"SMILES": "O=C1Cc2c([nH]c3ccc([N+](=O)[O-])cc23)-c2ccccc2N1", "remaining activity [%]": 76.2}
{"SMILES": "CC[n+]1c(/C=C/N(C)c2ccccc2)n(-c2ccccc2)c2ccc(-c3nc4ccccc4s3)cc21", "remaining activity [%]": 110}
{"SMILES": "CCCC(=O)Oc1ccc2[nH]c(C(=O)c3cc4ccccc4[nH]3)cc2c1", "remaining activity [%]": 90.9}
{"SMILES": "Fc1ccc(-c2nc3n(c2-c2ccncc2)CCS3)cc1", "remaining activity [%]": 97.9}
{"SMILES": "Cc1cc(Nc2nc(-c3ccccc3)nc3ccccc23)n[nH]1", "remaining activity [%]": 115}
{"SMILES": "CSc1nc(-c2ccnc(N[C@@H](C)c3ccccc3)c2)c(-c2ccc(F)cc2)[nH]1 (racemic)", "remaining activity [%]": 92.2}
{"note": "Some of these lines once more (sample 2):"}
{"SMILES": "Fc1ccc2nc(-n3cncn3)c(-c3ccc(Cl)cc3Br)c(Cl)c2c1", "remaining compound [%]": 102}
{"SMILES": "O=C(C1CCCN(S(=O)(=O)c2cc(Cl)ccc2Cl)C1)N1CCCCC1 (centres unmarked)", "remaining compound [%]": 1.18}
{"SMILES": "Cc1nc(-c2cc(C(=O)OCc3cc(F)cc4c3OCOC4)n(C)c2)cs1", "remaining compound [%]": 0.901}
